Published values collected from several papers.
Lines come from different studies, so protocols differ. Several values in a cell are separate wells, animals, samples, runs or records. Numbers after ± are the reported error.

For `COc1cccc(OC)c1-c1cc(C(=O)NC2(C(=O)O)C3CC4CC(C3)CC2C4)nn1-c1ccc(C(=O)N(C)CCCN(C)C(=O)[C@H](CCCCNC(=O)[C@H](CC(C)C)NC(=O)C2OC2C(=O)O)NC(=O)CN2CCN(CC(=O)[O-])CCN(CC(=O)[O-])CCN(CC(=O)[O-])CC2)cc1C(C)C.[177Lu+3]` (mixture of isomers), the tissue uptake was 0.09 %ID/g (mouse HT-29 xenograft, large intestine; 168 h post injection, biodistribution).
`COc1ccc(Nc2nc(Nc3ccc(OCCOCCOCC[18F])cc3)ncc2Br)cc1` has a tissue uptake of 2.35 ± 0.22 %ID/g (ICR mouse, S180 sarcoma-bearing, blood; intravenous, 370 kBq in 100 µL, 60 min).
`O=C([O-])CN1CCN(CC(=O)[O-])CCN(CC(=O)NCC2CCC(C(=O)NC(Cc3ccc4ccccc4c3)C(=O)NCCCCC(NC(=O)NC(CCC(=O)O)C(=O)O)C(=O)O)CC2)CCN(CC(=O)[O-])CC1.[68Ga+3]` (stereo not drawn) has a tissue uptake of 0.31 ± 0.07 %ID/g (PET/CT; mouse 22Rv1 xenograft, blood; 1 h).
For `COc1ccc(Nc2nc(Nc3ccc(OCCOCC[18F])cc3)ncc2Br)cc1`, the tissue uptake was 3.24 ± 0.25 %ID/g (ICR mouse, S180 sarcoma-bearing, blood; intravenous, 370 kBq in 100 µL, 60 min).
For `O=C(O)CCCOc1ccc([18F])cc1-c1cc(-c2ccccc2C(F)(F)F)n(-c2ccccc2)n1`, the tissue uptake was 0.49 ± 0.06 %ID/g (mouse, large intestine; intravenous, dose not given, 30 min).
`CN(Cc1ccccc1)C(=O)CN1CCN(CC(=O)[O-])CCN(CC(=O)N(C)Cc2ccccc2)CC1.[18F-].[Sc+3]` has a tissue uptake of 15.9 ± 7.2 %ID/g (BALB/c mouse, small intestine; intravenous, 1 h).
The tissue uptake of `COc1ccc2c(c1)C(C)(C)C(/C=C/C1=C(Oc3ccc(C(=O)NCCCCOc4cc(CN(Cc5ccccn5)Cc5ccccn5)cc(CN(Cc5ccccn5)Cc5ccccn5)c4)cc3)C(=C/C=C3/N(CCCCS(=O)(=O)[O-])c4ccc(OC)cc4C3(C)C)CCC1)=[N+]2CCCCS(=O)(=O)[O-].O=[N+]([O-])[O-].O=[N+]([O-])[O-].[99Tc+].[C-]#[O+].[C-]#[O+].[C-]#[O+].[Zn+2]` is reported as 3.66 %ID/g and 6.37 %ID/g and 7.29 %ID/g and 3.2 %ID/g (BALB/c mouse, Staphylococcus aureus myositis, adrenals; 12 h).
`CN(Cc1ccccc1)C(=O)CN1CCN(CC(=O)[O-])CCN(Cc2cccc(C(=O)[O-])n2)CC1.[18F-].[Sc+3]` has a tissue uptake of 0.07 ± 0.01 %ID/g (BALB/c mouse, large intestine; intravenous, 1 h).
The tissue uptake of `[11CH3]N1CCC(NC(=O)c2cc(-c3c(O)cc(O)cc3Oc3ccc([N+](=O)[O-])cc3)on2)CC1` is reported as 7.8 ± 1.1 %ID (NMRI mouse, healthy, kidneys; intravenous, 5.5 MBq, 10 min).
For `COc1cccc(OC)c1-c1cc(C(=O)NC2(C(=O)O)C3CC4CC(C3)CC2C4)nn1-c1ccc(C(=O)N(C)CCCN(C)CCCN(C)C(=O)[C@H](CCCCNC(=O)[C@H](CC(C)C)NC(=O)C2OC2C(=O)O)NC(=O)CN2CCN(CC(=O)[O-])CCN(CC(=O)[O-])CCN(CC(=O)[O-])CC2)cc1C(C)C.[177Lu+3]` (mixture of isomers), the tissue uptake was 2.6 %ID/g (mouse, HT-29 xenograft, liver; 4 h post injection).
With `N#C[C@@H]1CC(F)(F)CN1C(=O)CNC(=O)c1ccnc2c(NC(=O)[C@H](CCCCNC(=O)CCOCCOCCOCCOCCOCCOCCNC(=O)CN3CCN(CC(=O)[O-])CCN(CC(=O)[O-])CCN(CC(=O)[O-])CC3)NC(=O)CCCc3ccc(I)cc3)cccc12.[177Lu+3]` the tissue uptake was 0.36 ± 0.1 %ID/g (mouse, U-87 MG tumour xenograft, salivary gland; 96 h).
With `O=C([O-])CN1CCN(CC(=O)[O-])CCN(Cc2cccc(C(=O)[O-])n2)CC1.[44Sc+3]` the tissue uptake was 0.38 ± 0.08 %ID/g (BALB/c mouse, small intestine; intravenous, 1 h).

Repeated from above:
For `O=C(O)CCCOc1ccc([18F])cc1-c1cc(-c2ccccc2C(F)(F)F)n(-c2ccccc2)n1`, the tissue uptake was 0.49 ± 0.06 %ID/g (mouse, large intestine; intravenous, dose not given, 30 min).
